Experimental data pooled from the literature.
Parts stem from different laboratories: compare values within a part only. Substitutions count along the parent as printed.

Sample 1
Target: Histone acetyltransferase KAT6A, winged helix 2, GST fusion (KAT6A, Homo sapiens, UniProt Q92794, residues 85-181)
Technique: protein binding microarray
Molecule type: double-stranded DNA, one strand shown
Matrix: in vitro
Tested at: not given
Setting: 8-mer, flanks averaged, mean of 2 arrays, mostly near background
Relative to: not given
Direction: higher = stronger binding
Target sequence (chain): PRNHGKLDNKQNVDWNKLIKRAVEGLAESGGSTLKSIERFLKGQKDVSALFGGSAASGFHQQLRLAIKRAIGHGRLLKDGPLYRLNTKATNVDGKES
For `CGTGGGCA`, the E-score was -0.052.
For `TAAGCGCA`, the E-score was 0.0751.
`CCAGGGAA` gave an E-score of -0.0464.
For `GCTGACCA`, the E-score was 0.103.
With `TAGGCGAA` the E-score was -0.0505.
`ATCAATAA` gave an E-score of 0.114.
For `ACGTCCGG`, the E-score was -0.0549.
With `CTATAGAG` the E-score was -0.0735.
With `AAGCCTGT` the E-score was -0.0513.
`GGGGCAAA` gave an E-score of -0.0664.
For `CGTAGAGA`, the E-score was -0.101.
`CACTTCTA` has an E-score of -0.0384.
`GGTCAGCA` gave an E-score of -0.00362.
With `CGTTATCC` the E-score was -0.163.
With `GAACACGA` the E-score was 0.0532.
`CAGACGCC` gave an E-score of -0.0459.
For `AACATAAC`, the E-score was 0.0193.
With `CAGTACCC` the E-score was -0.0406.
For `CGTCGATC`, the E-score was 0.0706.
For `ATCAGCTA`, the E-score was -0.0217.
With `AGGGCCCC` the E-score was -0.082.
`TCACTGAA` has an E-score of -0.0167.
`AGGAGGTG` gave an E-score of -0.0801.
`CGTGCTAA` gave an E-score of -0.0559.
The E-score of `ACAATAAG` is reported as -0.181.

Sample 2
Target: DBP, bZIP domain (human)
Technique: DHFR protein complementation
Matrix: yeast
Setting: single substitutions, most at no-binding floor
Relative to: wild-type JUN-FOS pair
Direction: higher = stronger binding
Parent: JUN, bZIP domain (human); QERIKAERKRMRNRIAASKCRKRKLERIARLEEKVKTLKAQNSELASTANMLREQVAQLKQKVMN; partner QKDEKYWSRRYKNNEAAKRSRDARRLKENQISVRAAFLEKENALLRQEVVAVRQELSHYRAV
With `L31E` the binding fitness was -1.52 natural log.
For `A57K`, the binding fitness was -1.55 natural log.
The binding fitness of `L52S` is reported as -1.49 natural log.
`A46Y` has a binding fitness of -1.54 natural log.
For `L38C`, the binding fitness was -1.56 natural log.
`L52E` gave a binding fitness of -1.47 natural log.
`N42R` has a binding fitness of -1.48 natural log.
`A57T` has a binding fitness of -1.41 natural log.
For `L45C`, the binding fitness was -1.54 natural log.
`E32G` has a binding fitness of -1.39 natural log.
With `K36H` the binding fitness was -1.39 natural log.
`M51G` gave a binding fitness of -1.52 natural log.
`R53C` gave a binding fitness of -1.48 natural log.

Sample 3
Target: Interferon regulatory factor 7, full length, phosphomimetic (IRF7, Homo sapiens, UniProt Q92985, residues 1-503, S471D/S472D/S475D/S476D/S477D/S483D/S484D/S487D)
UniProt Q92985, sequence (whole entry, unmodified, looked up): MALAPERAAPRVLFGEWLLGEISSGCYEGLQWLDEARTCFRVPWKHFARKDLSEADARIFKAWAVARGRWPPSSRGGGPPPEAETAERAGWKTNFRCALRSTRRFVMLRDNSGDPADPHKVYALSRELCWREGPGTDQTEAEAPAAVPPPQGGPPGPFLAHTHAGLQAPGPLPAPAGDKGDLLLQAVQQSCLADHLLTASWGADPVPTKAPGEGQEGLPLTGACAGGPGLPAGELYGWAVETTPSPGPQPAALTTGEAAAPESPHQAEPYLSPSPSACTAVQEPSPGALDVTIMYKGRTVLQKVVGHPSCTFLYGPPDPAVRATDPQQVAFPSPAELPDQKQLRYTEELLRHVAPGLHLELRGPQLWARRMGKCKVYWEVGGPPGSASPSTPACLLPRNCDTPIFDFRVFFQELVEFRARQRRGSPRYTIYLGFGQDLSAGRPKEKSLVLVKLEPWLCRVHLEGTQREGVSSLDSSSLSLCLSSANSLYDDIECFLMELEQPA
Technique: protein-binding microarray
Molecule type: double-stranded DNA, one strand shown
Matrix: in vitro
Tested at: 2200 nM top
Setting: 60-bp whole probe
With: salmon DNA 0.4 mg/ml
Relative to: random background probes
Direction: higher = stronger binding
All sequences stand within: GCCTAGCAC … GTCTTGATTCGCTTGACGCTGCTG
`TTAGGTATCGGAATGGGTTAGTGCTAG` — result for “fitted relative affinity”: 0.359 z-score.
`GCAGGGTATAGGCATTCCCTGTGCTAG`: “fitted relative affinity” -1.05 z-score.
Under “fitted relative affinity”, `TTAGGTTTCCTTATCTTTTAGTGCTAG` is recorded as 1.45 z-score.
Under “fitted relative affinity”, `TTAGGACTGGACTTTCGGCTAGTGCTA` is recorded as 1.01 z-score.
For `TCACCCCTCAGATCTGCCACTGTGCTA`, “fitted relative affinity” read 0.657 z-score.
`GACGATCGCAGACTGGAGACGTGCTAG`: “fitted relative affinity” -0.406 z-score.
Under “fitted relative affinity”, `TTAGAACTTAGTATCGATTAGTGCTAG` is recorded as -0.0542 z-score.
Under “fitted relative affinity”, `GACGATATCGGGATTCGAGACGTGCTA` is recorded as 0.155 z-score.
`GACGGTCTCTGTATCGGGACGTGCTAG`: “fitted relative affinity” 0.323 z-score.
`TCCAGTCTGGGAGATGAAGCGGTGCTA`: “fitted relative affinity” -0.673 z-score.
Under “fitted relative affinity”, `TTAGGACTGCTACTCCTTTAGTGCTAG` is recorded as 0.565 z-score.
`GACGGTTTCGACAATCGGGACGTGCTA`: “fitted relative affinity” 2.01 z-score.
For `TTAGGACTGCTTATACTTTAGTGCTAG`, “fitted relative affinity” read -0.0525 z-score.
For `CAGGTTTTGCTAAGTCAACTGGTGCTA`, “fitted relative affinity” read 0.564 z-score.
Under “fitted relative affinity”, `GACGGTCTCCTACTGCTGAAGTGCTAG` is recorded as 0.585 z-score.
`GACGGTATCCTTATCCAGACGTGCTAG`: “fitted relative affinity” 0.648 z-score.
`AATGAGGCACTGAGAGCAGAGTGCTAG` — result for “fitted relative affinity”: -1.04 z-score.
`AGACTTCTCCATTTTTCTAGGTGCTAG`: “fitted relative affinity” 1.03 z-score.
`TTAGATTTCAGTGTCGATTAGTGCTAG`: “fitted relative affinity” 0.365 z-score.
`GACGATTTCGGGATTGGAGACGTGCTA`: “fitted relative affinity” 2.14 z-score.
`TTAGGAGTGGTACATGAAGCGTGCTAG`: “fitted relative affinity” -0.741 z-score.
Under “fitted relative affinity”, `ATGTTCACTGTGTACCGTCTGTGCTAG` is recorded as 1.73 z-score.
For `TCAATTTTTTTTCACTAACTGTGCTAG`, “fitted relative affinity” read 1.06 z-score.

Sample 4
Target: ABI1, truncated, D143A, DHFR fusion (Arabidopsis thaliana)
Technique: DHFR PCA, deep sequencing
Matrix: yeast
Setting: methotrexate growth selection, single substitutions
With: (+)-ABA 0 µM
Relative to: wild-type fitted maximum
Direction: higher = stronger binding
Parent: PYL1, truncated, DHFR fusion (Arabidopsis thaliana); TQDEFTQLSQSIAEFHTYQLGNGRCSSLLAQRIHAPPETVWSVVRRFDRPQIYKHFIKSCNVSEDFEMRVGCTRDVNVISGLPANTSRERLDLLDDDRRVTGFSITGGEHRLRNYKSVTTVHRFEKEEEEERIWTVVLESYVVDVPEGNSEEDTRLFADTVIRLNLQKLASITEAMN; partner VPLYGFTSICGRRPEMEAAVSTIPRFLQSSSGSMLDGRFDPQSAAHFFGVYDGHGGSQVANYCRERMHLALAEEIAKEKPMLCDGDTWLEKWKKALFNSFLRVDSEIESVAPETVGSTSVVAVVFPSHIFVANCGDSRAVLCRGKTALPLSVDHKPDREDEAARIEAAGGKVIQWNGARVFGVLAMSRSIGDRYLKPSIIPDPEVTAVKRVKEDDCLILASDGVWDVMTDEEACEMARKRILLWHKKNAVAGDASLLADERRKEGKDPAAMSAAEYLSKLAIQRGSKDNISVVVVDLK
`C60A` — result for “relative binding score”: 0.409%.
`V145N`: “relative binding score” -10.2%.
`S26I` — result for “relative binding score”: 1.56%.
`F124D`: “relative binding score” 10.2%.
For `R24I`, “relative binding score” read 4.98%.
`R99M`: “relative binding score” 78.2%.
`R155V`: “relative binding score” 3.45%.
`E127D` — result for “relative binding score”: 34.3%.
Under “relative binding score”, `S171M` is recorded as 24.9%.
For `M68V`, “relative binding score” read 8.97%.
`R113M` — result for “relative binding score”: 17.6%.
For `G108E`, “relative binding score” read -5.09%.
Under “relative binding score”, `N149F` is recorded as 1.92%.
`R123S` — result for “relative binding score”: 46.3%.
Under “relative binding score”, `T39D` is recorded as 7.7%.

Sample 5
Target: CCND3, cyclin fold, Cln2 fusion (human)
Technique: yeast growth competition, sequencing
Matrix: yeast
Setting: weak parent motif
Relative to: not given
Direction: higher = stronger binding
Parent: PKN2 docking peptide (human); VSAVQKLDFSDTM
For `S10E`, “normalised enrichment score” read 0.234.
`V4R`: “normalised enrichment score” 0.126.
Under “normalised enrichment score”, `S2G` is recorded as 0.0819.
For `L7V`, “normalised enrichment score” read 0.0528.
For `M13H`, “normalised enrichment score” read 0.116.
`F9D`: “normalised enrichment score” 0.11.
Under “normalised enrichment score”, `V1E` is recorded as 0.0565.
`A3R`: “normalised enrichment score” 0.0927.
Under “normalised enrichment score”, `F9K` is recorded as 0.176.
Under “normalised enrichment score”, `K6Q` is recorded as 0.145.
For `L7N`, “normalised enrichment score” read 0.174.
`S10H`: “normalised enrichment score” 0.0917.
`K6D` — result for “normalised enrichment score”: 0.113.
Under “normalised enrichment score”, `S2T` is recorded as 0.172.

Sample 6
Target: Sox-I, HMG box (Salpingoeca helianthica)
Technique: Spec-seq
Molecule type: double-stranded DNA, one strand shown
Matrix: in vitro
Tested at: not given
Setting: whole probe, mean of replicates
Relative to: not given
Direction: lower = stronger binding
All sequences stand within: GAGTCGTCTCGTCAGCAC … CCGTAGAGCACTCAGGTC
Target sequence (chain): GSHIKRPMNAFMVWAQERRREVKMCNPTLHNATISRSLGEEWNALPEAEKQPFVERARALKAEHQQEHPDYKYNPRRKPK
`CATTTTG` — result for “relative binding energy”: 0.875 ln ratio.
Under “relative binding energy”, `CATCATT` is recorded as 0.149 ln ratio.
`CATAAGG`: “relative binding energy” 0.28 ln ratio.
Under “relative binding energy”, `ATAAGTT` is recorded as -0.3 ln ratio.
Under “relative binding energy”, `CATACAT` is recorded as 0.142 ln ratio.
Under “relative binding energy”, `CATGAGA` is recorded as 1.06 ln ratio.
`CATTCCC`: “relative binding energy” 0.986 ln ratio.
For `CATGGCA`, “relative binding energy” read 0.947 ln ratio.
Under “relative binding energy”, `CGCGGTT` is recorded as 1.08 ln ratio.
Under “relative binding energy”, `CATGCTC` is recorded as 0.847 ln ratio.
For `CATAGAC`, “relative binding energy” read 0.368 ln ratio.
`TTCGGTT`: “relative binding energy” 0.838 ln ratio.
Under “relative binding energy”, `GTATGTT` is recorded as 0.111 ln ratio.
`CATCCTG` — result for “relative binding energy”: 0.781 ln ratio.
`TTTAGTT`: “relative binding energy” 0.124 ln ratio.
`CATAATT` — result for “relative binding energy”: -0.34 ln ratio.
`CATAAAG`: “relative binding energy” -0.503 ln ratio.
For `CATTAGA`, “relative binding energy” read 0.58 ln ratio.
`CATGGTC` — result for “relative binding energy”: 0.703 ln ratio.
`CATATAC`: “relative binding energy” 0.324 ln ratio.
`CATACCA` — result for “relative binding energy”: 0.367 ln ratio.
`CATGGAT`: “relative binding energy” 1.02 ln ratio.

Further values, each from its own experiment
The fold induction of `PhoQ, residues 284 288 289 292 302 303 GASLAW` is reported as 4.59 (PhoP, residues 12 14 15 18 19 LHSVQ (Escherichia coli, UniProt P23836); Sort-seq, measured: YFP reporter; E. coli; PhoQ-PhoP variant library, with: 10 µM Mg2+; relative to: high Mg2+ state, higher = stronger signaling).
